Published values gathered from unrelated publications.
Each line is one published result; not all experiments were run side by side. Values joined by “and” are separate records of one study, mostly repeats; a detail may differ. ± marks the error that the study gave.
UniProt P06873, sequence (whole entry, looked up): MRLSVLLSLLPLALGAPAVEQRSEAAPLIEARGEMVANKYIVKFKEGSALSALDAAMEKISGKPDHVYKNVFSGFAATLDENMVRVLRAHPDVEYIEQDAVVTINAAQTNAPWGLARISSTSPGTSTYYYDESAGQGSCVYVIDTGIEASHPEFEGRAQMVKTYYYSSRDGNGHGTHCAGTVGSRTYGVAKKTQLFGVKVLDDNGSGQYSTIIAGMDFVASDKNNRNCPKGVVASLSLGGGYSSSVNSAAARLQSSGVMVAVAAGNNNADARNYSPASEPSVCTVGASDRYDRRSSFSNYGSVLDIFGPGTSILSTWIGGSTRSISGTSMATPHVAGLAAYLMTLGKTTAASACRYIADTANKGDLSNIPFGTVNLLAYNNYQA
UniProt P08183, sequence (whole entry, looked up): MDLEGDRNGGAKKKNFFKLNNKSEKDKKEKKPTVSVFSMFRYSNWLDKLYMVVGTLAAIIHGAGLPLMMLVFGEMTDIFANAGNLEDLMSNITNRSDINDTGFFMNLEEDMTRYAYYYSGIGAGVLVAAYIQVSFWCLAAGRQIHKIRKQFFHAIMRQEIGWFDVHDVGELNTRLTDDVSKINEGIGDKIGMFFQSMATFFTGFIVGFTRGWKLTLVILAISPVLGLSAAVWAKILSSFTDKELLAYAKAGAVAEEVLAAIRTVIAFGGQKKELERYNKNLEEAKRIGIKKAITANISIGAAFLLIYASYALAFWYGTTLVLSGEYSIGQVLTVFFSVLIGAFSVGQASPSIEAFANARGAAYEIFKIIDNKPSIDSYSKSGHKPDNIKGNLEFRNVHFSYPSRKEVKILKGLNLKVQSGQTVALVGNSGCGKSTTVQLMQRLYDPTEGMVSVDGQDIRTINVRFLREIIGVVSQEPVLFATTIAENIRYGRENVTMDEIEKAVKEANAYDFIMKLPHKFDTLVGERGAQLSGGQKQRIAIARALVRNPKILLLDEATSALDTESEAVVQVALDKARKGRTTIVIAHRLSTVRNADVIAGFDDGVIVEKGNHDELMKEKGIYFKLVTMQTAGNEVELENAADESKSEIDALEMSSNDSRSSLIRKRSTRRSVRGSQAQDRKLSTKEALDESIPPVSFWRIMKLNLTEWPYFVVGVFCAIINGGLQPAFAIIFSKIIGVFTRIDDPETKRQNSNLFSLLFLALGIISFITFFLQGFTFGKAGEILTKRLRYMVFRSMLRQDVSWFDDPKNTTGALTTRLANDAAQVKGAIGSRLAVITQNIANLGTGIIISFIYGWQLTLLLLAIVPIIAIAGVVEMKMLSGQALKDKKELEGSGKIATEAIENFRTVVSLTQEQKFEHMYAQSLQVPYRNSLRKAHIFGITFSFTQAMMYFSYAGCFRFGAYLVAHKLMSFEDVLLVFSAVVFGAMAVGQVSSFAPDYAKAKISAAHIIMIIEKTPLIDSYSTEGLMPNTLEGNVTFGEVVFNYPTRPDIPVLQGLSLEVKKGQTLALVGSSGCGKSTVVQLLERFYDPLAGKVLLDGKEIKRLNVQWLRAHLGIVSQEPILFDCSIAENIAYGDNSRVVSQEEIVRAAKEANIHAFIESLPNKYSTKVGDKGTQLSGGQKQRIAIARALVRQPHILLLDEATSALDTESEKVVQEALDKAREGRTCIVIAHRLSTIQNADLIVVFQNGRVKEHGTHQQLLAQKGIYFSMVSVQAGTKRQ

Under “blurred vision incidence”, `COc1cc2c(Oc3ccc4[nH]c(C)cc4c3F)ccnc2cc1OCC1(N)CC1` is recorded as 0% (paediatric refractory sarcoma patients; 10 mg).
`O=C1c2c(O)c(=O)ccn2N([C@@H]2c3ccccc3SCc3c2ccc(F)c3F)[C@@H]2COCCN12` gave a plasma concentration of 6.85 ng/mL (BALB/c mice, plasma; oral, 15 mg/kg baloxavir marboxil, 12 h).
`CC1(C)C(/C=C(\Cl)C(F)(F)F)C1C(=O)OC(C#N)c1cccc(Oc2ccccc2)c1` (centres unmarked) — result for “relative enzyme contribution”: 35.1% (human cytosolic CES1; IVIVE from expressed enzymes; human, 6 months old; reference: total hepatic CLint in vivo).
Under “probability of response”, `O=c1ccc2ccccc2o1` is recorded as 0% (HepG2; refers to: cell count; concentration not given, 24 h, heat and osmotic shock panel).
For `OCc1ncc2n1-c1ccc(Cl)cc1C(c1ccccc1F)=NC2`, “geometric LS mean ratio of AUClast” read 1.28 (CYP3A4 (human); human, plasma; oral, 2 mg midazolam, Day 1, with: single dose encorafenib and binimetinib; reference: Day -7).
Under “fold increase in revertants”, `CC(=O)N1CCC(C(=O)N2CCN3C(=O)c4cc(-c5ccccc5)ccc4NC(=O)C3C2)CC1` (centres unmarked) is recorded as 1.6 (Salmonella typhimurium; TA1537; 5.0 µg/plate, with: rat liver S9; reference: vehicle).
`CN(C)c1ccc(O)c2c1C[C@H]1C[C@H]3[C@H](N(C)C)C(O)=C(C(N)=O)C(=O)[C@@]3(O)C(O)=C1C2=O` has an IC50 of 7.94 µM (Plasmodium falciparum; D10).
For `Nc1ncnc2c([C@@H]3N[C@H](CO)[C@@H](O)[C@H]3O)c[nH]c12`, the cell number was 5120 and 5320 (HeLa; 50 µM).
`CO[C@H]1C[C@@H]2CC[C@@H](C)[C@@](O)(O2)C(=O)C(=O)N2CCCC[C@H]2C(=O)O[C@H]([C@H](C)C[C@@H]2CC[C@@H](OC(=O)NCCOCCOCCOCCOCCOCCOCCOCCOCCC(=O)N3CCc4cc(Cn5nc(-c6ccc7oc(N)nc7c6)c6c(N)ncnc65)ccc4C3)[C@H](OC)C2)C[C@@H](O)[C@H](C)/C=C(\C)[C@@H](O)[C@@H](OC)C(=O)[C@H](C)C[C@H](C)/C=C/C=C/C=C/1C` has a dyspnoea incidence of 37.5% (patients with advanced solid tumours; intravenous, 10 mg weekly, any grade).
`O=[N+]([O-])c1ccc(N2CCN(CCC(O)c3ccc(F)cc3)CC2)c(C(F)(F)F)c1` (centres unmarked) has an induction factor of 0.6 (Salmonella typhimurium; genotoxicity, SOS/umu test; TA1535/pSK1002; 0.25 mg/mL, 4 h, with S9, lower range).
`C=C(C)[C@@H]1CCC(C)=C[C@H]1c1c(O)cc(CCCCC)cc1O`: “subjects with Death” 0% (human; 750 mg, trial 17075, with: fluconazole 400 mg).
`CCCC[C@H](NC(C)=O)C(=O)N[C@@H](CO)C(=O)N[C@H](C(=O)N1CCC[C@H]1C(=O)N[C@@H](C)C(=O)N[C@@H](CCCNC(=N)N)C(=O)N[C@@H](CCCNC(=N)N)C(=O)N[C@@H](CCCNC(=N)N)C(=O)N[C@@H](CC(C)C)C(=O)N[C@@H](CCCC)C(=O)N[C@@H](CCCNC(=N)N)C(=O)N[C@@H](CC(=O)O)C(=O)N[C@@H](Cc1ccccc1)C(=O)N[C@@H](CCCCN)C(=O)N[C@@H](CCCNC(=N)N)C(=O)N[C@@H](CC(C)C)C(=O)N[C@@H](CCC(N)=O)C(N)=O)[C@@H](C)O`: “remaining intact peptide” 7.5% and 10% (Proteinase K (PROK, Engyodontium album, UniProt P06873); substrate, LC-MS; 25 µM, 61.4 min, pH 7.4).
`OC(CCN1CC=C(c2ccc(F)cc2)CC1)c1ccc(F)c2ccccc12` (centres unmarked) gave a survival of 96.2% (Salmonella typhimurium; SOS/umu test; TA1535/pSK1002; 0.004 mg/mL, 4 h, with S9, full range).
For `CC(C)CC(=O)OC[C@H]1O[C@@](C#N)(c2ccc3c(N)ncnn23)[C@H](O)[C@@H]1O`, the recovery was 55.8% (ABCB1 (Homo sapiens, UniProt P08183); apical to basolateral transport; Caco-2; 9 µM, 2 h, with: verapamil 100 µM).
The survival rate of `[Cl-].[Cl-].[Pt+2].[Ru+2].c1ccc(-c2nc3cc4ccccc4cc3nc2-c2ccccn2)nc1.c1cnc2c(c1)ccc1cccnc12.c1cnc2c(c1)ccc1cccnc12` is reported as 93.3 ± 4.4% (Danio rerio; embryos; 45 µM, 12 h).
Under “revertant colonies per plate”, `COc1cccc(-c2n[nH]c(SCc3ccccn3)n2)c1OC` is recorded as 17 (Salmonella typhimurium; Ames test, plate incorporation; TA98; 2.0 mg/plate, with rat liver S9).
`Nc1nccc2c1ncn2[C@@H]1O[C@H](CO)[C@@H](O)[C@H]1O` gave an IC50 of 3.16 µM (Plasmodium falciparum; D10).
`O=S(=O)(NCCNC/C=C/c1ccc(Br)cc1)c1cccc2cnccc12` has a dead embryos of 0% (PKA; inhibitor; mouse zygotes; 20 µM, injection, hCG, 24 h post, early embryonic development).
Under “relative enzyme contribution”, `CC1(C)[C@H](C=C(Cl)Cl)[C@H]1C(=O)OCc1cccc(Oc2ccccc2)c1` is recorded as 6.1% (human microsomal CES2; IVIVE from expressed enzymes; human, 6 months old, expressed human CES2; 0.1 µM; reference: total hepatic CLint in vivo).
`Cc1cc(C(=O)NC(C)(C)COc2cccc3c2C(N)=NS(=O)(=O)N3)cc(C)n1` gave a revertant ratio of 1.2 (Salmonella typhimurium; Ames test, initial; TA1535; 5000 µg/plate, with: rat liver S9; reference: solvent control).
